Experimental data pooled from the literature.
Parts stem from different laboratories: compare values within a part only. Positions count from the first letter of the parent shown.

Sample 1
Target: CCNB1, cyclin fold, Cln2 fusion (human)
Method: yeast growth competition, sequencing
Matrix: yeast
Notes: strong parent motif
Baseline: not given
Direction: higher = stronger binding
Starting sequence: CDC42EP1 docking peptide (human); SLVVGKLSFDSSP; partner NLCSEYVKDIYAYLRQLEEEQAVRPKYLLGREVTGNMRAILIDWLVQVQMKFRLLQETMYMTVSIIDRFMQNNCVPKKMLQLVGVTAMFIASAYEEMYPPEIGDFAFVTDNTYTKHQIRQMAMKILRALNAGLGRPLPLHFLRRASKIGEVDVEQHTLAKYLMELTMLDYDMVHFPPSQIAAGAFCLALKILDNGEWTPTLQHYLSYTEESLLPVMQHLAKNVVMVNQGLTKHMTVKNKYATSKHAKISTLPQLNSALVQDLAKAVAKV
`G5A`: “normalised enrichment score” 1.93.
`V4A`: “normalised enrichment score” 0.816.
`L2A` — result for “normalised enrichment score”: 1.99.
For `V3A`, “normalised enrichment score” read 0.889.
Under “normalised enrichment score”, `S12A` is recorded as 1.49.
`S8A` — result for “normalised enrichment score”: 1.
`D10A` — result for “normalised enrichment score”: 0.423.

Sample 2
Target: Histone acetyltransferase KAT6A, winged helix 2, GST fusion (KAT6A, Homo sapiens, UniProt Q92794, residues 85-181)
Method: protein binding microarray
Form: double-stranded DNA, one strand shown
Matrix: in vitro
Concentration: not given
Notes: 8-mer, flanks averaged, mean of 2 arrays, mostly near background
Baseline: not given
Direction: higher = stronger binding
Construct (chain): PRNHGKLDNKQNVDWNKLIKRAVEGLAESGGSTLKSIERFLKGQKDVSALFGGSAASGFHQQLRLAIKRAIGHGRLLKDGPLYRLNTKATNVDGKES
`CTTGATCC` gave an E-score of 0.122.
With `TCGGGGAA` the E-score was 0.123.
For `ACAGAGAT`, the E-score was -0.019.
For `AATTTTCG`, the E-score was -0.084.
`GCCTCCTA` gave an E-score of -0.111.
For `AGTCGATA`, the E-score was -0.115.
For `AAGGCGCA`, the E-score was 0.0902.
`ACGCGGGA` gave an E-score of 0.151.
The E-score of `AACTCACT` is reported as 0.0244.
For `GCCTCAAC`, the E-score was 0.207.
`ACTTCTCG` gave an E-score of -0.0419.
For `GATAAGCA`, the E-score was 0.0769.
The E-score of `CGCGTTGC` is reported as 0.208.
For `TCATGGAA`, the E-score was 0.0184.
For `TAATATAA`, the E-score was 0.196.
The E-score of `AGATGACC` is reported as -0.0865.
With `CCACCCAG` the E-score was 0.0915.
With `TGGTCACA` the E-score was 0.144.
With `CCGTCCCA` the E-score was 0.0374.
`ATAACACA` has an E-score of -0.193.
For `AAGATCGA`, the E-score was 0.0733.
The E-score of `AGTCCCCA` is reported as -0.13.
`AGAACACT` has an E-score of 0.00499.
With `CACATATA` the E-score was -0.103.
`TGACGCCA` has an E-score of -0.0807.

Sample 3
Target: PABPC1L2, full length, GST fusion (mouse, UniProt A0ABA7IW68)
Method: RNAcompete
Form: RNA
Matrix: in vitro
Concentration: 20 nM
Notes: 7-mer, probes averaged, single round
Baseline: mean of 7-mers
Direction: higher = stronger binding
Residues (chain): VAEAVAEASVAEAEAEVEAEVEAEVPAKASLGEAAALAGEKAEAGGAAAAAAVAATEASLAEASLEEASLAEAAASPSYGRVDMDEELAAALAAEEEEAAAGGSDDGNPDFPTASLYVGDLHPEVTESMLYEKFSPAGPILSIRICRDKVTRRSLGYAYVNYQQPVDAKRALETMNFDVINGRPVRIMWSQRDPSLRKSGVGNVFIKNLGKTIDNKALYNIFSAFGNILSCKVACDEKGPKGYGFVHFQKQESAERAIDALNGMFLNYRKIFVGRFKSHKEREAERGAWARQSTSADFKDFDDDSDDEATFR
For `AUAUUUU`, the 7-mer Z-score was -0.144.
With `UUCACCU` the 7-mer Z-score was -0.469.
For `UAAAGGA`, the 7-mer Z-score was 0.43.
`CUCUCGC` gave a 7-mer Z-score of -0.436.
`UCCAAGU` gave a 7-mer Z-score of -0.177.
`GGUCUGU` has a 7-mer Z-score of -0.24.
For `UCUGGUC`, the 7-mer Z-score was -0.278.
`AGGGAGG` has a 7-mer Z-score of 0.423.
The 7-mer Z-score of `AGACAUC` is reported as -0.277.
The 7-mer Z-score of `AAGUGUC` is reported as 0.22.
`CGGGCGA` gave a 7-mer Z-score of 0.408.
`UAGAUUG` gave a 7-mer Z-score of -0.182.
`UAUCUCA` has a 7-mer Z-score of -0.153.
For `UAUAGGA`, the 7-mer Z-score was 0.0678.
The 7-mer Z-score of `GUCUGUG` is reported as -0.271.
The 7-mer Z-score of `ACAUGCU` is reported as -0.0319.
With `UUAGUUU` the 7-mer Z-score was -0.436.
For `GAAAAUC`, the 7-mer Z-score was 2.04.
The 7-mer Z-score of `UCACUAU` is reported as -0.211.
`GUCGCAG` has a 7-mer Z-score of -0.287.
`GUAGCAG` has a 7-mer Z-score of -0.193.
`ACCCGUC` has a 7-mer Z-score of -0.396.
The 7-mer Z-score of `CCAAGAU` is reported as -0.0428.
With `CGAACGC` the 7-mer Z-score was -0.15.
`ACUGAGA` has a 7-mer Z-score of 0.164.

Sample 4
Target: Ras GTPase-activating protein-binding protein 1, C-terminal RGG region (G3BP1, Homo sapiens, UniProt Q13283)
UniProt Q13283, sequence (whole entry, looked up): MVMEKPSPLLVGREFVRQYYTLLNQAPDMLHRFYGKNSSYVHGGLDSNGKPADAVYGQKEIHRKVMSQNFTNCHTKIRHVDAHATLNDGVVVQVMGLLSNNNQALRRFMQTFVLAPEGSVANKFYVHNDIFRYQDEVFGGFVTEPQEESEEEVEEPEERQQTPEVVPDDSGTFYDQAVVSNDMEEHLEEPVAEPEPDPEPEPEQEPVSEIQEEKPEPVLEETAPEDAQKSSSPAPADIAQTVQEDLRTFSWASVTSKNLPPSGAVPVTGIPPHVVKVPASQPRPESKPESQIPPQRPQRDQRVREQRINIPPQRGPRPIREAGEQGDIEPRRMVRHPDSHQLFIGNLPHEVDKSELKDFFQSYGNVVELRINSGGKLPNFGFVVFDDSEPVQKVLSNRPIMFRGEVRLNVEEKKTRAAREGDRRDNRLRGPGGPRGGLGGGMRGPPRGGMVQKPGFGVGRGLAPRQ
Method: RNA Bind-n-Seq
Form: RNA
Matrix: in vitro
Concentration: 1 µM
Notes: whole 134-nt RNA, ends assumed
Added: 150 mM KCl
Baseline: input library
Direction: higher = stronger binding
With `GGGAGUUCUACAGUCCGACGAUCUGGGAGGUGGAUGUUGUUUAUUUUUUUAGCUCAUUUCCAGGGGUGGGAAUUUUUUUUUAAUAUGUGUCAUGAAUAAAGUUGUUUUUGAAAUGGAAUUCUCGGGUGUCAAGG` the log2 enrichment was 2.89.
For `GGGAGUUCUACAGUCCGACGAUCAGUCCUGUGCUACACAUCGUAUGUACCGAAUCGGGGAAAAGGGAAAAGGGAAAAGGGGAAAGUAUUAUGUUACGCCGUUCGGAUCUGCACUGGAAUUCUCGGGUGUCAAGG`, the log2 enrichment was 0.799.
With `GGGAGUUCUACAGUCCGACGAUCCACAGACAACACGCACCCACACAGACACAGAGGGAAGGGGUUGGGAUGGGGACAGGGUGCACAGCAGGGCGGGGUAGGACCCAAGCCCCUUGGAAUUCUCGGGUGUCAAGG` the log2 enrichment was -1.05.
`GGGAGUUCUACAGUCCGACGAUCUGGGAGGUGGAUUUUGUUUAUUUUUUUAGCUCAUUUACAGGGGUGGGAAUUUUUUUUUAAUAUGUGUCAUGAAUAAAGUUGUUUUUGAAAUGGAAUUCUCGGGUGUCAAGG` gave a log2 enrichment of 3.04.
`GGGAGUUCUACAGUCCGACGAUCUGGCCCUGGUGGCAUGCGGGGAGGAAGAGGUGGCCUCAUGGAUCGUCGUGGUCCCGGUGGAAUGUUCAGAGGUGGCCGUGGUGGAGACAGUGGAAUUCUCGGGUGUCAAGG` gave a log2 enrichment of 2.27.
`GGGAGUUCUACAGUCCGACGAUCCUCAAGUCCUGUGCUACACAUCGUAUGUACCGAAUCGGAAAAAAAGGAGGUGGAAAGUAUUAUGUUACGCCGUUCGGAUCUGCACUUCCAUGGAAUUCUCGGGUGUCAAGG` gave a log2 enrichment of -1.36.
`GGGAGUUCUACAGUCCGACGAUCAGUCCUGUGCUACACAUCGUAUGUACCGAAUCGGGAGGGUUUUUGGGUUUUUUUGGGAAAGUAUUAUGUUACGCCGUUCGGAUCUGCACUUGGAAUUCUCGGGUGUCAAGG` gave a log2 enrichment of -0.427.
For `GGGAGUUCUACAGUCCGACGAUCGUCCUGUGCUACACAUCGUAUGUACCGAAUCGGCCCCCGGGCCCCCGGGCCCCCGGGGAAAGUAUUAUGUUACGCCGUUCGGAUCUGCACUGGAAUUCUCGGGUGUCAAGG`, the log2 enrichment was -1.51.
For `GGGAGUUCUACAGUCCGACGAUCGCAGGAAGUAAAAACAAAUGGAAAUGCUUCGGAUAGUGGCAGGGGUGGGGGUUGCUAAGGAAAGGGUGGGAUGGGAGUGGGUAGAGAGUUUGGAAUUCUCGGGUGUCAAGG`, the log2 enrichment was 0.552.

Sample 5
Target: Transcription factor Sp1 (SP1, Homo sapiens, UniProt P08047, residues 1-785, full length assumed)
UniProt P08047, sequence (whole entry, looked up): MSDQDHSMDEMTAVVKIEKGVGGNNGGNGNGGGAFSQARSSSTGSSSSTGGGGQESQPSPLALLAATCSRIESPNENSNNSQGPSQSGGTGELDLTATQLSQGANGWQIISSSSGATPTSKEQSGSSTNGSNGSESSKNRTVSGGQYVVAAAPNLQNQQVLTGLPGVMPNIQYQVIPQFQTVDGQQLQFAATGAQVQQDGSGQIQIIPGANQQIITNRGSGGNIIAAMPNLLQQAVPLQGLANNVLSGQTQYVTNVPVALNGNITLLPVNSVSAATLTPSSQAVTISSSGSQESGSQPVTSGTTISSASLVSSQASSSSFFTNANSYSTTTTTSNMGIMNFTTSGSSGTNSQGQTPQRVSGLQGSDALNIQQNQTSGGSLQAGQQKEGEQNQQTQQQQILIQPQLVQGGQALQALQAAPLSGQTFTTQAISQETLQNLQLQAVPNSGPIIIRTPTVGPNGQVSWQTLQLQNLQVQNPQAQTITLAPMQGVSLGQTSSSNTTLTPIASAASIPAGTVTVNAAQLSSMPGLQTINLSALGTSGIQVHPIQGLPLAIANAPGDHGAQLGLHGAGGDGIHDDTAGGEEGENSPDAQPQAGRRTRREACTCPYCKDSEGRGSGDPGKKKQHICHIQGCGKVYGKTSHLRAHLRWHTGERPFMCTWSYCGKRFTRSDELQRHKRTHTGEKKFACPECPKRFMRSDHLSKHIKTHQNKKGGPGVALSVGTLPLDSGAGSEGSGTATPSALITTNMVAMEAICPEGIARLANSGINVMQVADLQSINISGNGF
Method: protein-binding microarray
Form: double-stranded DNA, one strand shown
Matrix: in vitro
Concentration: not given
Notes: k-mer, scored over probes, only values ≥0.25
Direction: higher = stronger binding
The E-score of `ATATATAC` is reported as 0.29.
`ATATATGC` has an E-score of 0.293.
For `CATACATG`, the E-score was 0.305.
`GTGTGGGA` has an E-score of 0.325.
With `CACCCCAC` the E-score was 0.426.
`CCCTCCAC` has an E-score of 0.293.
The E-score of `GGGGTCTA` is reported as 0.251.
The E-score of `ATATACTA` is reported as 0.26.
With `ACCCCACA` the E-score was 0.396.
`ACACCCAC` has an E-score of 0.299.
The E-score of `AACTAGGG` is reported as 0.265.
`ATTACGTA` has an E-score of 0.259.
`CCCCTTGA` has an E-score of 0.316.
For `ATACCCCA`, the E-score was 0.274.
For `ATAGGGGC`, the E-score was 0.324.
With `AGTGTATA` the E-score was 0.269.

Excerpt of the above (sample 1):
`S8A` — result for “normalised enrichment score”: 1.
For `V3A`, “normalised enrichment score” read 0.889.
`D10A` — result for “normalised enrichment score”: 0.423.
`V4A`: “normalised enrichment score” 0.816.
Under “normalised enrichment score”, `S12A` is recorded as 1.49.
